Measurements from different studies.
Each line is one published result; not all experiments were run side by side. ± gives the spread as reported.
Partner: itself
B1: NUMA1 1-1699 (Homo sapiens, UniProt Q14980); LD555 dye on C-terminal SNAP; sequence looked up; chain MTLHATRGAALLSWVNSLHVADPVEAVLQLQDCSIFIKIIDRIHGTEEGQQILKQPVSERLDFVCSFLQKNRKHPSSPECLVSAQKVLEGSELELAKMTMLLLYHSTMSSKSPRDWEQFEYKIQAELAVILKFVLDHEDGLNLNEDLENFLQKAPVPSTCSSTFPEELSPPSHQAKREIRFLELQKVASSSSGNNFLSGSPASPMGDILQTPQFQMRRLKKQLADERSNRDELELELAENRKLLTEKDAQIAMMQQRIDRLALLNEKQAASPLEPKELEELRDKNESLTMRLHETLKQCQDLKTEKSQMDRKINQLSEENGDLSFKLREFASHLQQLQDALNELTEEHSKATQEWLEKQAQLEKELSAALQDKKCLEEKNEILQGKLSQLEEHLSQLQDNPPQEKGEVLGDVLQLETLKQEAATLAANNTQLQARVEMLETERGQQEAKLLAERGHFEEEKQQLSSLITDLQSSISNLSQAKEELEQASQAHGARLTAQVASLTSELTTLNATIQQQDQELAGLKQQAKEKQAQLAQTLQQQEQASQGLRHQVEQLSSSLKQKEQQLKEVAEKQEATRQDHAQQLATAAEEREASLRERDAALKQLEALEKEKAAKLEILQQQLQVANEARDSAQTSVTQAQREKAELSRKVEELQACVETARQEQHEAQAQVAELELQLRSEQQKATEKERVAQEKDQLQEQLQALKESLKVTKGSLEEEKRRAADALEEQQRCISELKAETRSLVEQHKRERKELEEERAGRKGLEARLQQLGEAHQAETEVLRRELAEAMAAQHTAESECEQLVKEVAAWRERYEDSQQEEAQYGAMFQEQLMTLKEECEKARQELQEAKEKVAGIESHSELQISRQQNELAELHANLARALQQVQEKEVRAQKLADDLSTLQEKMAATSKEVARLETLVRKAGEQQETASRELVKEPARAGDRQPEWLEEQQGRQFCSTQAALQAMEREAEQMGNELERLRAALMESQGQQQEERGQQEREVARLTQERGRAQADLALEKAARAELEMRLQNALNEQRVEFATLQEALAHALTEKEGKDQELAKLRGLEAAQIKELEELRQTVKQLKEQLAKKEKEHASGSGAQSEAAGRTEPTGPKLEALRAEVSKLEQQCQKQQEQADSLERSLEAERASRAERDSALETLQGQLEEKAQELGHSQSALASAQRELAAFRTKVQDHSKAEDEWKAQVARGRQEAERKNSLISSLEEEVSILNRQVLEKEGESKELKRLVMAESEKSQKLEERLRLLQAETASNSARAAERSSALREEVQSLREEAEKQRVASENLRQELTSQAERAEELGQELKAWQEKFFQKEQALSTLQLEHTSTQALVSELLPAKHLCQQLQAEQAAAEKRHREELEQSKQAAGGLRAELLRAQRELGELIPLRQKVAEQERTAQQLRAEKASYAEQLSMLKKAHGLLAEENRGLGERANLGRQFLEVELDQAREKYVQELAAVRADAETRLAEVQREAQSTARELEVMTAKYEGAKVKVLEERQRFQEERQKLTAQVEQLEVFQREQTKQVEELSKKLADSDQASKVQQQKLKAVQAQGGESQQEAQRLQAQLNELQAQLSQKEQAAEHYKLQMEKAKTHYDAKKQQNQELQEQLRSLEQLQKENKELRAEAERLGHELQQAGLKTKEAEQTCRHLTAQVRSLEAQVAHADQQLRDLGK
B2: irisin mature, refolded (not on card, UniProt Q8NAU1); sequence looked up; chain DSPSAPVNVTVRHLKANSAVVSWDVLEDEVVIGFAISQQKKDVRMLRFIQEVNTTTRSCALWDLEEDTEYIVHVQAISIQGQSPASEPVLFKTPREAEKMASKNKDEVTMKE
B3: protein 1-735 (UniProt C7Z7K1); chain MSNLKDFSQPGSGQESNFGVDFVIHYKVPAAERDEAEAGFVQLIRALTTVGLATEVRHGENESLLVFVKVASPDLFAKQVYRARLGDWLHGVRVSAPHNDIAQALQDEPVVEAERLRLIYLMITKPHNEGGAGVTPTNAKWKHVESIFPLHSHSFNKEWIKKWSSKYTLEQTDIDNIRDKFGESVAFYFAFLRSYFRFLVIPSAFGFGAWLLLGQFSYLYALLCGLWSVVFFEYWKKQEVDLAVQWGVRGVSSIQQSRPEFEWEHEAEDPITGEPVKVYPPMKRVKTQLLQIPFALACVVALGALIVTCNSLEVFINEVYSGPGKQYLGFLPTIFLVIGTPTISGVLMGAAEKLNAMENYATVDAHDAALIQKQFVLNFMTSYMALFFTAFVYIPFGHILHPFLNFWRATAQTLTFSEKELPTREFQINPARISNQMFYFTVTAQIVNFATEVVVPYIKQQAFQKAKQLKSGSKVQEDHEEEAEFLQRVREECTLEEYDVSGDYREMVMQFGYVAMFSVAWPLAACCFLVNNWVELRSDALKIAISSRRPIPWRTDSIGPWLTALSFLSWLGSITSSAIVYLCSNSKNGTQGEASPLKAWGLLLSILFAEHFYLVVQLAVRFVLSKLDSPGLQKERKERFQTKKRLLQENLGQDAAEEAAAPGIEHSEKITREALEEEARQASIRGHGTPEEMFWQRQRGMQETIEIGRRMIEQQLAAGKNGKKSAPAVPSEKAS
B4: Btk 215-378 (Mus musculus, UniProt P35991); sequence looked up; chain ELKKVVALYDYMPMNANDLQLRKGEEYFILEESNLPWWRARDKNGQEGYIPSNYITEAEDSIEMYEWYSKHMTRSQAEQLLKQEGKEGGFIVRDSSKAGKYTVSVFAKSTGEPQGVIRHYVVCSTPQSQYYLAEKHLFSTIPELINYHQHNSAGLISRLKYPVS
B5: cfbA 1-143 S11I (Methanocaldococcus jannaschii, UniProt Q58380); chain MEALVLVGHGIRLPYSKELLVKLAEKVKERNLFPIVEIGLMEFSEPTIPQAVKKAIEQGAKRIIVVPVFLAHGIHTTRDIPRLLGLIEDNHEHHHEHSHHHHHHHHHEHEKLEIPEDVEIIYREPIGADDRIVDIIIDRAFGR
B6: S100P (Homo sapiens, UniProt P25815); sequence looked up; chain MTELETAMGMIIDVFSRYSGSEGSTQTLTKGELKVLMEKELPGFLQSGKDKDAVDKLLKDLDANGDAQVDFSEFIVFVAAITSACHKYFEKAGLK
B7: Pah 1-431 (Rattus norvegicus, UniProt P04176); sequence looked up; chain MAAVVLENGVLSRKLSDFGQETSYIEDNSNQNGAISLIFSLKEEVGALAKVLRLFEENDINLTHIESRPSRLNKDEYEFFTYLDKRTKPVLGSIIKSLRNDIGATVHELSRDKEKNTVPWFPRTIQELDRFANQILSYGAELDADHPGFKDPVYRARRKQFADIAYNYRHGQPIPRVEYTEEEKQTWGTVFRTLKALYKTHACYEHNHIFPLLEKYCGFREDNIPQLEDVSQFLQTCTGFRLRPVAGLLSSRDFLGGLAFRVFHCTQYIRHGSKPMYTPEPDICHELLGHVPLFSDRSFAQFSQEIGLASLGAPDEYIEKLATIYWFTVEFGLCKEGDSIKAYGAGLLSSFGELQYCLSDKPKLLPLELEKTACQEYSVTEFQPLYYVAESFSDAKEKVRTFAATIPRPFSVRYDPYTQRVEVLDNTQQLK
B8: phage phi29 gene 12 product D1*-D2-D3 89-691 A535V/D457E/G449V/D372A/Q181E/K166R (bacteriophage phi29, UniProt P20345); N-terminal His6; sequence looked up; chain FADLVIQVIDELKQFGVSVKTYGAKGDGVTDDIRAFEKAIESGFPVYVPYGTFMVSRGIKLPSNTVLTGAGKRNAVIRFMDSVGRGESLMYNENVTTGNENIFLSSFTLDGNNKRLGQGISGIGGSRESNLSIRACHNVYIRDIEAVDCTLHGIDITCGGLDYPYLGDGTTAPNPSENIWIENCEATGFGDDGITTHHSQYINILNCYSHDPRLTANCNGFEIDDGSRHVVLSNNRSKGCYGGIEIKAHGDAPAAYNISINGHMSVEDVRSYNFRHIGHHAATAPQSVSAKNIVASNLVSIRPNNKRGFQDNATPRVLAVSAYYGVVINGLTGYTDDPNLLTETVVSVQFRARNCSLNGVVLTGFSNSENGIYVIGGSRGGDAVNISNVTLNNSGRYGVSIGSGIENVSITNISGIGDGINSPVALVSTINSNPEISGLSSIGYPTVARVAGTDYNDGLTLFNGAFRASTTSSGKIHSEGFIMGSTSGCEASVSKSGVLTSSSSKTSSERSLIAGSSTSEAKGTYNTILGSLGAVADEQFAALISASQSRASGNHNLILSSYGINTTGSYKVNGGFEKINWELDSLNGRIKARDTVTGGNTWS
B9: CRYAB S59D (Homo sapiens, UniProt P02511); chain MDIAIHHPWIRRPFFPFHSPSRLFDQFFGEHLLESDLFPTSTSLSPFYLRPPSFLRAPDWFDTGLSEMRLEKDRFSVNLDVKHFSPEELKVKVLGDVIEVHGKHEERQDEHGFISREFHRKYRIPADVDPLTITSSLSSDGVLTVNGPRKQVSGPERTIPITREEKPAVTAAPKK
B10: eno (Escherichia coli, UniProt P0A6P9); sequence looked up; chain MSKIVKIIGREIIDSRGNPTVEAEVHLEGGFVGMAAAPSGASTGSREALELRDGDKSRFLGKGVTKAVAAVNGPIAQALIGKDAKDQAGIDKIMIDLDGTENKSKFGANAILAVSLANAKAAAAAKGMPLYEHIAELNGTPGKYSMPVPMMNIINGGEHADNNVDIQEFMIQPVGAKTVKEAIRMGSEVFHHLAKVLKAKGMNTAVGDEGGYAPNLGSNAEALAVIAEAVKAAGYELGKDITLAMDCAASEFYKDGKYVLAGEGNKAFTSEEFTHFLEELTKQYPIVSIEDGLDESDWDGFAYQTKVLGDKIQLVGDDLFVTNTKILKEGIEKGIANSILIKFNQIGSLTETLAAIKMAKDAGYTAVISHRSGETEDATIADLAVGTAAGQIKTGSMSRSDRVAKYNQLIRIEEALGEKAPYNGRKEIKGQA
B11: protein 303-462 (Bacillus pumilus, UniProt A3FMN7); sequence looked up; chain TIDKNALGDEGENLVLEYEKERVKLFDPSLVRKVVHLGKTKGLGYDIQSVVAEDGDFAEFVKYIEVKSTKRVTVPNLDDPSWIDTINLTRNEWIAATQHKSSYYLYRVYFTPGLATMYVINDPFTKNKDDILRAKPVSYRLDFSNKAVDFMVTEEKEEYR
B12: ddrC 99-231 (Deinococcus radiodurans, UniProt Q9RYE6); sequence looked up; chain RVAAQIAERNPEPDARRWLAARLESTGARRELLATVARHGGEGRVYGQLGSISNRTVLGKDSASVRQERGVKATRDGLTSAELLRLAYIDTVTARAIQESEARGNAAILTLHEQVARSERQSWERAGQVQRVG
B13: Gm4951 D125G (Mus musculus, UniProt Q3UED7); sequence looked up; chain MGQLFSSRRSEDQDLSSSFIEYLKECEKGINIIPHEIITSIEINMKKGNIQEVNSTVRDMLREIDNTPLNVALTGETGSGKSSFINTLRGIGHEEGGAAHTGVTDKTKERHPYEHPKMPNVVFWGLPGTGSEDFQPKTYLEKMKFYEYDFFIIISATRFKKNDIDLAKAIGIMKKEFYFVRTQVDSDLRNEEDFKPQTFDREKVLQDIRLNCVNTFRENGIAEPPIFLISNKNVCHYDFPVLMDKLISDLPVFKRQNFMFSLPNITDSVIEKKRNFLRWKTWLEGFADGLLSFFLESDLETLEKSMKFYRTVFGVDDASLQRLARAWEIDQVDQVRAMIKSPAVFTPTDEETIQERLSRYNQEFCLANGYLLPKNHCREILYLKLYFLDMVTEDAKTLLKEICLRN
B14: RBKS A181K (Homo sapiens, UniProt Q9H477); sequence looked up; chain MAASGEPQRQWQEEVAAVVVVGSCMTDLVSLTSRLPKTGETIHGHKFFIGFGGKGANQCVQAARLGAMTSMVCKVGKDSFGNDYIENLKQNDISTEFTYQTKDAATGTASIIVNNEGQNIIVIVAGANLLLNTEDLRAAANVISRAKVMVCQLEITPATSLEALTMARRSGVKTLFNPAPKIADLDPQFYTLSDVFCCNESEAEILTGLTVGSAADAGEAALVLLKRGCQVVIITLGAEGCVVLSQTEPEPKHIPTEKVKAVDTTGAGDSFVGALAFYLAYYPNLSLEDMLNRSNFIAAVSVQAAGTQSSYPYKKDLPLTLF
Chain of UniProt Q9T074 (whole entry, looked up): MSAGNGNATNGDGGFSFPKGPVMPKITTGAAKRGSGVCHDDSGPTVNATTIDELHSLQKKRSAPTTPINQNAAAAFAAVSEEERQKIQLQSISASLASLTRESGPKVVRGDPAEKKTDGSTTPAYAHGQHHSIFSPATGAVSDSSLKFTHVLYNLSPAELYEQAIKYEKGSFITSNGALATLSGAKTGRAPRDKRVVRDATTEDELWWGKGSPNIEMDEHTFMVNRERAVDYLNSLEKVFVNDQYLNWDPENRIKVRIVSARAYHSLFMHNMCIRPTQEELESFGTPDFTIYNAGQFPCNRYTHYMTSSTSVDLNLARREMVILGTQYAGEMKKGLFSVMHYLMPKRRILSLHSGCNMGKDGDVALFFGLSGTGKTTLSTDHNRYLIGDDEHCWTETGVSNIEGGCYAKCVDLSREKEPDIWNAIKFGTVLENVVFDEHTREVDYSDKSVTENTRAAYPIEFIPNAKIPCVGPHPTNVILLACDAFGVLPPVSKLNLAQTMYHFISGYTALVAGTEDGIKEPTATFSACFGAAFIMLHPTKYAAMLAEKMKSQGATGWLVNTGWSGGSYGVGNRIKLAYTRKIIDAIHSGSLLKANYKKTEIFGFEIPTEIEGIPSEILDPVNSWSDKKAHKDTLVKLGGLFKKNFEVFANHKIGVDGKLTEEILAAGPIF
Chain of UniProt P49850 (whole entry, looked up): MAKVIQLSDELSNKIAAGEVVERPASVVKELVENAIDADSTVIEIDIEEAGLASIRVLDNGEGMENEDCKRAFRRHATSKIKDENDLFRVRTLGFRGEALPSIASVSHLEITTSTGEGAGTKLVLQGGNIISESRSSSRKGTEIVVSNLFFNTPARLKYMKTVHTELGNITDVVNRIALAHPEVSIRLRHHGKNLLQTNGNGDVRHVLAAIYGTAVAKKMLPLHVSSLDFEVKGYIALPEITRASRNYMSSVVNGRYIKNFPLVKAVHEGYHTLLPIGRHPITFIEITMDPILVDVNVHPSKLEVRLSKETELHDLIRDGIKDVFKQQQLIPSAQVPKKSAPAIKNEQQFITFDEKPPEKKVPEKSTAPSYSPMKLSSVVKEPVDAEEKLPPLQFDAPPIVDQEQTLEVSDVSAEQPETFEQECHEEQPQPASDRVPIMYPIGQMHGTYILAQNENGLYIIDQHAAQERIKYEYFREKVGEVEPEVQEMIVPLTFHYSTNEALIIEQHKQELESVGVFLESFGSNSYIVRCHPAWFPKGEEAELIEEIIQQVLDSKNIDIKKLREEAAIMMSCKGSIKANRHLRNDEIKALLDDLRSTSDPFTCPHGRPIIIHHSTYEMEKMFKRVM
Chain of UniProt Q03555 (whole entry, looked up): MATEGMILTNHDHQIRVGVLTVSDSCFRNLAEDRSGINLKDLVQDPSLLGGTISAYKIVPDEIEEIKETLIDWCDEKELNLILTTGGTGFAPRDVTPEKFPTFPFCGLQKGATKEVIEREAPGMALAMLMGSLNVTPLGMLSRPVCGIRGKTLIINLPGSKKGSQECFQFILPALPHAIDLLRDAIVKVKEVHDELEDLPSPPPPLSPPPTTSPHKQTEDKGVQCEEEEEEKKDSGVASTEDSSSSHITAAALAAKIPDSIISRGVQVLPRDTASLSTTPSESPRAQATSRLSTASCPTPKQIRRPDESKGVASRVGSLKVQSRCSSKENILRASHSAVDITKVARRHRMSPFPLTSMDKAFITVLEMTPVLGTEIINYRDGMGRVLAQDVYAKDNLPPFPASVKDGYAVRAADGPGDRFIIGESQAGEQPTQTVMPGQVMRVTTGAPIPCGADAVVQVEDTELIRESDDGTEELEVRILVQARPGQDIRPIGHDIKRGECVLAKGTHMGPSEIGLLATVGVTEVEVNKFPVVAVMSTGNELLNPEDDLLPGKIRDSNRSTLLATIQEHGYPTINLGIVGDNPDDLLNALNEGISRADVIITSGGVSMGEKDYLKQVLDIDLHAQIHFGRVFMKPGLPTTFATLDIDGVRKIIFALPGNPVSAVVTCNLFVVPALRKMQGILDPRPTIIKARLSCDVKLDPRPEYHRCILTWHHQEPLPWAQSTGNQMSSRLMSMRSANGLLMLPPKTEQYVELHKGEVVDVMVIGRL

`B1 (NUMA1 1-1699)` — result for “subunits per oligomer”: 2 (mass photometry).
`B2 (irisin mature, refolded)`: “subunits per oligomer” 2 (SEC).
`B3 (protein 1-735)`: “subunits per oligomer” 2 (cryo-EM).
For `B4 (Btk 215-378)`, “subunits per oligomer” read 2 (SEC-MALS).
For `B5 (cfbA 1-143 S11I)`, “subunits per oligomer” read 2 (SEC).
`mutL (Bacillus subtilis, UniProt P49850)`: “subunits per oligomer” 2 (SEC).
`B6 (S100P)` — result for “subunits per oligomer”: 2 (AUC).
`PCK1, pT66/pS62 (Arabidopsis thaliana, UniProt Q9T074)`: “subunits per oligomer” 12 (SEC).
For `B7 (Pah 1-431)`, “subunits per oligomer” read 2 (native gel).
`B8` — result for “subunits per oligomer”: 3 (crystal structure).
`B9 (CRYAB S59D)` — result for “subunits per oligomer”: 22 subunits (SEC-MALS).
`B10 (eno)`: “subunits per oligomer” 2 (native MS).
`Gphn (Rattus norvegicus, UniProt Q03555)`: “subunits per oligomer” 3 (SEC).
`B11 (protein 303-462)` — result for “subunits per oligomer”: 2 (SEC).
Under “subunits per oligomer”, `B12 (ddrC 99-231)` is recorded as 1.96 ± 0.35 n-mer (SEC-MALS).
`B13 (Gm4951 D125G)`: “subunits per oligomer” 2 (mass photometry).
Under “subunits per oligomer”, `B14 (RBKS A181K)` is recorded as 2 (mass photometry).

Some of these lines once more:
Under “subunits per oligomer”, `B14 (RBKS A181K)` is recorded as 2 (mass photometry).
`Gphn (Rattus norvegicus, UniProt Q03555)`: “subunits per oligomer” 3 (SEC).
